Measured values gathered from unrelated publications.
Each line is one published result; not all experiments were run side by side. ± gives the spread as reported.
lecA: PA-I galactophilic lectin (lecA, Pseudomonas aeruginosa, UniProt Q05097)
Complement C3: Complement C3 (Homo sapiens, UniProt P01024)
Histone chaperone ASF1A: Histone chaperone ASF1A (Homo sapiens, UniProt Q9Y294)

CO[C@H](C(=O)[C@@H](O)[C@@H](C)O)[C@@H]1Cc2cc3cc(O[C@H]4C[C@@H](O[C@H]5C[C@@H](O)[C@H](O)[C@@H](C)O5)[C@H](O)[C@@H](C)O4)c(C)c(O)c3c(O)c2C(=O)[C@H]1O[C@H]1C[C@@H](O[C@H]2C[C@@H](O[C@H]3C[C@](C)(O)[C@H](O)[C@@H](C)O3)[C@@H](O)[C@@H](C)O2)[C@H](O)[C@@H](C)O1 — Kd (human histone H2A; fluorescence quenching titration; pH 7.0, 25 °C, no Mg2+): 0.96 ± 0.02 µM
O=c1c(Br)c2oc3c(CN(Cc4ccccn4)Cc4cnccn4)c(O)ccc3nc-2c2ccccc12 — Kd (zinc ion; fluorescence titration; pH 7.0, 25 °C): 0.00069 µM
Cn1ccc(-c2cc(Cl)c(Cl)c3[nH]c4c(c23)CN(C(=O)CO)CC4)n1 — Kd (CGAS (Homo sapiens, UniProt Q8N884); surface plasmon resonance; apo protein): no binding
CCOc1cc(C2CC(=O)NC3=C2C(=O)CC(c2ccc(F)cc2)C3)cc([N+](=O)[O-])c1O (stereo not drawn) — Kd (Histone acetyltransferase type B catalytic subunit (Homo sapiens, UniProt O14929); binding, SPR): 12 µM
C[C@H](N)C(=O)N[C@@H](CCCNC(=N)N)C(=O)N[C@H](C(=O)N[C@@H](CCCCN(C)C)C(=O)N[C@@H](CCC(N)=O)C(=O)N[C@H](C(=O)N[C@@H](C)C(=O)N[C@@H](CCCNC(=N)N)C(=O)N[C@@H](CCCCN)C(=O)N[C@@H](CO)C(=O)N[C@H](C(=O)NCC(=O)NCC(=O)N[C@@H](CCCCN)C(=O)N[C@@H](C)C(=O)O)[C@@H](C)O)[C@@H](C)O)[C@@H](C)O — Kd (Histone-lysine N-methyltransferase 2A, PHD3-bromodomain cassette (KMT2A, Homo sapiens, UniProt Q03164, del1666-1702); binding, isothermal titration calorimetry; pH 7.5, 25 °C, coexpressed protein complex, with: H3K4me peptide): 6.9 µM
C[C@H](NC(=O)[C@H](Cc1ccccc1)NC(=O)c1ccc(C(F)(F)F)cc1)C(=O)N[C@H](C(=O)N[C@@H](CCCC[N+](C)(C)C)C(=O)N[C@@H](CO)C(N)=O)C1CCCC1 — Kd (Chromobox protein homolog 2 (Homo sapiens, UniProt Q14781); binding, ITC): 0.73 µM
CC(C)=CCC[C@](C)(O)[C@H]1CC[C@]2(C)[C@@H]1[C@H](O)C[C@@H]1[C@@]3(C)CC[C@H](O)C(C)(C)[C@@H]3CC[C@]12C — Kd (YWHAZ (Homo sapiens, UniProt P63104, R56A); biolayer interferometry; R56A mutant): 2350 ± 0.11 µM
OC[C@H]1O[C@@H](OCc2cn([C@H]3[C@H](O)[C@@H](O)[C@H](c4cn([C@H]5[C@H](O)[C@@H](O)[C@H](n6cc([C@@H]7O[C@H](Cn8cc(-c9ccccc9)nn8)[C@@H](n8cc(CO[C@@H]9O[C@H](CO)[C@H](O)[C@H](O)[C@H]9O)nn8)[C@H](O)[C@H]7O)nn6)O[C@@H]5CO)nn4)O[C@@H]3Cn3cc(-c4ccccc4)nn3)nn2)[C@H](O)[C@@H](O)[C@H]1O — Kd (lecA; binding, ITC): 0.057 µM
C[n+]1cc(NC(=O)c2ccc3ccc4ccc(C(=O)Nc5cc6ccccc6[n+](C)c5)nc4c3n2)cc2ccccc21 — Kd (telomeric G4 DNA hybrid-2; binding, fluorescence titration; 100 mM KCl buffer; pH 7.2, with: labelled G4 DNA 2 nM): 0.0031 ± 0.0002 µM
O=C(COc1ccc2ccccc2c1)N[C@@H](Cc1cn(CCNC(=O)c2ccc(S[C@@H]3O[C@H](CO)[C@H](O)[C@H](O)[C@H]3O)cc2)nn1)C(=O)NCCO — Kd (lecA; binding, ITC): 7.6 µM
CC(C)[C@@H]1NC(=O)[C@@H](NC(=O)[C@@H](N)CCC(N)=O)CSSC[C@@H](C(=O)N[C@@H](Cc2c[nH]c3ccccc23)C(N)=O)NC(=O)[C@H](CCC(N)=O)NC(=O)[C@H](CC(N)=O)NC(=O)[C@H](CCC(N)=O)NC(=O)CNC(=O)[C@H](Cc2c[nH]c3ccccc23)NC(=O)[C@H](CC(=O)O)NC(=O)[C@H](CCC(N)=O)NC(=O)[C@H](Cc2c[nH]c3ccccc23)NC1=O — Kd (Complement C3; surface plasmon resonance; 25 °C, two-state reaction model): 0.99 µM
CCOC(=O)C1=CN([C@@H]2O[C@H](CO)[C@@H](O)[C@H]2O)C=CC1 — Kd (SIRT5 (Homo sapiens, UniProt Q9NXA8); binding, MST): 6.1 µM
CC[C@H](C)[C@H](NC(=O)[C@H](CCCNC(=N)N)NC(=O)NC[C@H](CCC(N)=O)NC(=O)NC[C@H](CC(C)C)NC(=O)NC[C@H](CCCNC(=N)N)NC(=O)NC[C@H](CCc1ccccc1)NC(=O)[C@H](CCCCN)NC(=O)[C@H](CCC(=O)O)NC(C)=O)C(=O)N[C@@H](C)C(N)=O — Kd (Histone chaperone ASF1A; binding, ITC; pH 7.5): 4.6 µM
C=CCCCO[C@@H]1C[C@@H](C(=O)N[C@@H](CCCNC(=N)N)C(=O)N[C@@H](CCCNC(=N)N)C(=O)N[C@@H](CCCNC(=N)N)C(N)=O)N(C(=O)[C@@H]2CCCN2C(=O)[C@@H](NC(=O)[C@@H]2C[C@H](OCC=C)CN2C(=O)[C@@H]2CCCN2C(=O)[C@@H]2CCCN2C(=O)[C@@H](NC(C)=O)C(C)C)C(C)C)C1 — Kd (Growth factor receptor-bound protein 2, N-terminal SH3 domain (GRB2, Homo sapiens, UniProt P62993); binding, tryptophan fluorescence; PBS; 21 °C): 14.5 ± 0.75 µM
CC[C@H](C)[C@H](NC(=O)[C@H](CCCNC(=N)N)NC(=O)NC[C@H](CCC(N)=O)NC(=O)NC[C@H](CC(C)C)NC(=O)NC[C@H](CCCNC(=N)N)NC(=O)NC[C@H](Cc1c[nH]c2ccccc12)NC(=O)[C@H](CCCCN)NC(=O)[C@H](CCC(=O)O)NC(C)=O)C(=O)N[C@@H](C)C(N)=O — Kd (Histone chaperone ASF1A; binding, ITC; pH 7.5): 10.6 µM
Cc1ccc(OCC(=O)N[C@@H](Cc2cn(CCNC(=O)c3ccc(S[C@@H]4O[C@H](CO)[C@H](O)[C@H](O)[C@H]4O)cc3)nn2)C(=O)NCCO)cc1 — Kd (lecA; binding, ITC): 6.8 µM
CC(C)[C@@H]1NC(=O)[C@@H](NC(=O)[C@@H](N)Cc2c[nH]c3ccccc23)CSSC[C@@H](C(=O)N[C@@H](Cc2c[nH]c3ccccc23)C(N)=O)NC(=O)[C@H](CCCNC(=N)N)NC(=O)[C@H](CC(N)=O)NC(=O)[C@H]([C@@H](C)O)NC(=O)CNC(=O)[C@H](Cc2c[nH]c3ccccc23)NC(=O)[C@H](CC(=O)O)NC(=O)[C@H](CCC(N)=O)NC(=O)[C@H](Cc2c[nH]c3ccccc23)NC1=O — Kd (Complement C3; surface plasmon resonance; 25 °C, 1:1 binding model): 0.51 µM
CNc1ccccc1C(=O)O[C@H]1C[C@H](n2cnc3c(N)ncnc32)O[C@@H]1COP(=O)(O)OP(=O)(O)O — Kd (Unconventional myosin-Va (Gallus gallus, UniProt Q02440, D297C/G292C/I296C/S293C/V295G); binding, ligand, stopped-flow FRET; 15 °C, with: 2 mM MgCl2): 0.92 ± 0.16 µM
Nc1ncnc2c1ncn2[C@@H]1O[C@H](COP(=O)(O)OP(=O)(O)OP(=O)(O)O)[C@@H](O)[C@H]1O — Kd (dnaA (Escherichia coli, UniProt P03004); binding, radiometric): 0.1 µM
O=C(Cc1ccccc1O)N[C@@H](Cc1cn(CCNC(=O)c2ccc(S[C@@H]3O[C@H](CO)[C@H](O)[C@H](O)[C@H]3O)cc2)nn1)C(=O)NCCO — Kd (lecA; binding, ITC): 8.8 µM
CC(C)C[C@H](NC(=O)[C@H](CCCNC(=N)N)NC(=O)[C@@H](NC(=O)[C@H](CC(=O)O)NC(=O)[C@@H](N)CSC1CC(=O)N(c2ccc3c(c2)C(=O)OC32c3ccc(O)cc3Oc3cc(O)ccc32)C1=O)[C@@H](C)O)C(=O)O (stereo partly drawn) — Kd (Na(+)/H(+) exchange regulatory cofactor NHE-RF1, PDZ1 domain (NHERF1, Homo sapiens, UniProt O14745); binding to PDZ1 domain, fluorescence polarization; 24 °C): 0.949 ± 0.089 µM
O=P(O)(O)O[C@@H]1[C@@H](O)[C@H](O)[C@H](O)[C@H](O)[C@H]1OP(=O)(O)O — Kd (Inositol 1,4,5-trisphosphate-gated calcium channel ITPR1, N-terminal region (Itpr1, Rattus norvegicus, UniProt P29994, del318-332/R568Q); [3H]IP3 competition binding; N-terminal fragment R568Q; Tris-EDTA medium): 0.974 µM
COc1ccc(Nc2nc(Nc3ccc(OC)c(OC)c3)c3[nH]cnc3n2)cc1OC — Kd (BTK (Homo sapiens, UniProt Q06187); binding, ITC): 1 µM
C[n+]1cc2cc3cc(ccc31)NC(=O)CCCCC(=O)Nc1ccc3c(c1)cc(c[n+]3C)C(=O)NCc1cccc(c1)CNC2=O — Kd (cKIT2 G-quadruplex DNA; microscale thermophoresis): 5.11 ± 0.96 µM
[N-]=[N+]=N[C@H]1[C@H](O)[C@@H](O)[C@H](n2cc(CO[C@@H]3O[C@H](CO)[C@H](O)[C@H](O)[C@H]3O)nn2)O[C@@H]1CO — Kd (lecA; binding, ITC): 6.2 µM
COc1cc(-c2nc3ccc(C(=O)NCCCN4CCN(c5cccc(C)c5C)CC4)cc3n2C2CCC2)cc(OC)c1OC — Kd (ACVRL1 (Homo sapiens, UniProt P37023); binding, TR-FRET): 0.0032 µM
O=C(Nc1cc(Cl)ccc1O)c1nn2c(C(F)(F)F)cc(-c3cc(Br)cs3)nc2c1Br — Kd (Hepatitis A virus cellular receptor 2 (Homo sapiens, UniProt Q8TDQ0); binding, microscale thermophoresis): 0.26 µM

A few entries again:
CNc1ccccc1C(=O)O[C@H]1C[C@H](n2cnc3c(N)ncnc32)O[C@@H]1COP(=O)(O)OP(=O)(O)O — Kd (Unconventional myosin-Va (Gallus gallus, UniProt Q02440, D297C/G292C/I296C/S293C/V295G); binding, ligand, stopped-flow FRET; 15 °C, with: 2 mM MgCl2): 0.92 ± 0.16 µM
O=C(COc1ccc2ccccc2c1)N[C@@H](Cc1cn(CCNC(=O)c2ccc(S[C@@H]3O[C@H](CO)[C@H](O)[C@H](O)[C@H]3O)cc2)nn1)C(=O)NCCO — Kd (lecA; binding, ITC): 7.6 µM
C[C@H](NC(=O)[C@H](Cc1ccccc1)NC(=O)c1ccc(C(F)(F)F)cc1)C(=O)N[C@H](C(=O)N[C@@H](CCCC[N+](C)(C)C)C(=O)N[C@@H](CO)C(N)=O)C1CCCC1 — Kd (Chromobox protein homolog 2 (Homo sapiens, UniProt Q14781); binding, ITC): 0.73 µM
